Measured values collected from several papers.
Lines come from different studies, so protocols differ.
B1: enzyme (Ehrlichia chaffeensis, UniProt Q2GG44); chain MKVLLTNDDGFHANGIKVLKEIVMAAGIASEIWVVAPLSNCSGCGRSVGLRHAIEVYKVSDTEFIVNSTPSTTMFLGLKEIVGEKPDLVLSGINSGVNIGNDVTYSGTIAAAAEAAMMSIPSIAISQEYDGRSGEINWENPRKFLKGIVDMLLGAPSWDKSTVMSVNFPLISAKGIKFTSQGKYMPYNKIEKKKNAASSISYTIHRTAPDKDSRGESDDSIRALDDGYVTITPLKFDMTDFDILESLMLLNEGCNI
B2: enzyme (UniProt A0A0P0CH59); chain MRIALFSDIHANLPALEAVLANMETQQLDAIYCLGDLVGYAPWPNEVVAEIRKRRIPTIAGNYDEGVGLWSPNCGCAYKTDTEKDLGQQSIDFTNNVVTEETRKYLRMLPRQLRLTFMDGSKEENKIELLLVHGSPRKINEYLFEDRPEKSFLKMMEEANADLLFFGHTHKPYHRAMPYEHEGQTRYRHAINIGSVGKPKDGDPRTGYVVVELTPESSLTQKDSIKVEFIRVPYDVETAAQAVEASPLPNEFAQMLRTA
B3: enzyme H130A (Salinispora arenicola, UniProt A8M783); chain MASTPWISFTTDYGLADGFVAACHGVLARLAPTARVIDVTHLVPPGDVRRGAAVLAQTVPYLPAAVHVAVVDPGVGTARRAIALTAGNGLLVGPDNGLLLDAATALGGVDAAVELTNPDWLGARMSATFAGRDVFAPVAARLALGAPLADAGPAVEPGALVRLPTPLVQPETDGFTAEVLTVDHFGNVQLAATGALLESLPRSLRVAHRPAVHARTFDDAPPGGLLVHVDSAGLVAVAVNGGRAADLLAVTPGDQLRVTAG
B4: FDH1 (Arabidopsis thaliana, UniProt Q9S7E4); chain MAMRQAAKATIRACSSSSSSGYFARRQFNASSGDSKKIVGVFYKANEYATKNPNFLGCVENALGIRDWLESQGHQYIVTDDKEGPDCELEKHIPDLHVLISTPFHPAYVTAERIKKAKNLKLLLTAGIGSDHIDLQAAAAAGLTVAEVTGSNVVSVAEDELMRILILMRNFVPGYNQVVKGEWNVAGIAYRAYDLEGKTIGTVGAGRIGKLLLQRLKPFGCNLLYHDRLQMAPELEKETGAKFVEDLNEMLPKCDVIVINMPLTEKTRGMFNKELIGKLKKGVLIVNNARGAIMERQAVVDAVESGHIGGYSGDVWDPQPAPKDHPWRYMPNQAMTPHTSGTTIDAQLRYAAGTKDMLERYFKGEDFPTENYIVKDGELAPQYR
B5: aspC A106G/A17N/A218G/A278L/A281T/A8Q/D18E/F210I/F212I/F350Y/G15S/G249S/I187A/I279A/I29V/I33V/I341V/I5L/I68L/I71L/L46M/M321L/M380L/N285S/N30D/N64T/S129T/S135A/S273G/S351L/T100S/V125I/V136I/V375I/Y244C (Escherichia coli, UniProt P00509); chain MFENLTAQPADPILSLNELFRADERPGKVDLGVGVYKDETGKTPVMTSVKKAEQYLLENETTKTYLGLDGLPEFGRCTQELLFGKGSALINDKRARTAQSPGGTGGLRVAADFLAKNTSVKRVWISNPTWPNHKAIFNSAGLEVREYAYYDAENHTLDFDALINSLNEAQAGDVVLFHGCCHNPTGADPTLEQWQTLAQLSVEKGWLPLIDIAYQGFGRGLEEDAEGLRAFAAMHKELIVASSCSKNFSLYNERVGACTLVAADSETVDRAFGQMKALARTNYSSPPAHGASVVATILSNDALRAIWEQELTDMRQRIQRLRQLFVNTLQEKGANRDFSFVIKQNGMFSYLGLTKEQVLRLREEFGVYAVASGRINVAGLTPDNMAPLCEAIVAVL
B6: PYCR2 R119C (Homo sapiens, UniProt Q96C36); chain MSVGFIGAGQLAYALARGFTAAGILSAHKIIASSPEMNLPTVSALRKMGVNLTRSNKETVKHSDVLFLAVKPHIIPFILDEIGADVQARHIVVSCAAGVTISSVEKKLMAFQPAPKVICCMTNTPVVVQEGATVYATGTHALVEDGQLLEQLMSSVGFCTEVEEDLIDAVTGLSGSGPAYAFMALDALADGGVKMGLPRRLAIQLGAQALLGAAKMLLDSEQHPCQLKDNVCSPGGATIHALHFLESGGFRSLLINAVEASCIRTRELQSMADQEKISPAALKKTLLDRVKLESPTVSTLTPSSPGKLLTRSLALGGKKD
B7: enzyme T248A (Glycine max, UniProt I1LJ26); chain MMELFLSCMVLFVLTLATLGAHWIWVVSSSRAGSKLPPGPFPLPIIGNLLALGKKPHQSLAKLAETHGPIMTLKFGQVTTIVVSSADMAKEVLLTHDHSLSSNRVIPQAVQVHNHHNHSITFLPVSPLWRDLRKICIANLFSNKTLDASQDLRRSKLHQLLHDIHRSSLAGEAVDVGKAVFNTSMNLLSNTFFSLDLVHSSSSAAAVDFKDLVLKIMEESGKPNLADFFPVLKFMDPQGIKTRTTVYAGKIIDTFRALIHQRLKLRENNHGHDTNNDMLNTLLNCQEMDQTKIEHLALTLFVAGTDTITSTVEWAMAELLQNEKAMSKAKQELEETIGRGKAVEESDIGRLPYLQAVIKETFRLHPAVPFLIPRKANADVEISGGYTIPKDAQVFVNVWAIGRNSSIWKNNANVFSPERFLMDSEDIDVKGHSFELTPFGAGRRICLGLPLAMRMLYLVLGSLINCFNWKLVEDDDVMNMEDSFGITLAKAQPVILIPEKVHGVIVS
B8: enzyme (Azotobacter vinelandii, UniProt C1DN94); chain MSESPLRLDRLRDFVSALGELLDRHPDEESVLREGRSLLGELVRHDDWLPEEFAQPDPERYQQYLLHADSRQRFSVVSFVWGPGQTTPVHDHRVWGLIGMLRGAEDAQSFELGAEGLRPIGDPVRLSPGQVEAVSPRIGDIHRVFNASPDQPSISIHVYGANIGAVRRAVYLPDGSEKPFISGYSNQFLPNIWDQSKESARP
B9: enzyme (Trypanosoma brucei, UniProt Q9GV41); chain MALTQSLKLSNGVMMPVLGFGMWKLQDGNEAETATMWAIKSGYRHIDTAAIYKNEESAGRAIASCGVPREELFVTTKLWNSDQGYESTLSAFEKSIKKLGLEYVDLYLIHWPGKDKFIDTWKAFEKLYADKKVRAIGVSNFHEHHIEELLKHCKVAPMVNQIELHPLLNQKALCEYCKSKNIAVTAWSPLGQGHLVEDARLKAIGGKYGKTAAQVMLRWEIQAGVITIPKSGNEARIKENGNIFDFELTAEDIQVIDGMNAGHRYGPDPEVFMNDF
B10: enzyme Y243A (Arabidopsis thaliana, UniProt Q9LJK1); chain EKCQEWLERVDSVTYSRDFTKDPIFISGSNKDFKSCSVDCVMGFTSDKKPDAAFGLSHQPGTLSIIRSMESAQYYQENNLAQARRKGYDIVMTTSLSSDVPVGYFSWAEYDIMAPVQPKTEKALAAAFISNCAARNFRLQALEALMKTNVKIDSAGGCHRNRDGSVEKVEALKHYKFSLAFENTNEEDYVTEKFFQSLVAGSVPVVVGAPNIEEFAPSPDSFLHIKQMDDVKAVAKKMKYLADNPDAYNQTLRWKHEGPSDSFKALIDMAAVHSSCRLCIFVATRIREQEEKSPEFKRRPCKCTRGSETVYHLYVRERGRFDMESIFLKDGNLTLEALESAVLAKFMSLRYEPIWKKERPASLRGDGKLRVHGIYPIGLTQRQALYNFKFEGNSSLSTHIQRNPCPKFEVVFV
Sequence of UniProt P78804 (whole entry, looked up): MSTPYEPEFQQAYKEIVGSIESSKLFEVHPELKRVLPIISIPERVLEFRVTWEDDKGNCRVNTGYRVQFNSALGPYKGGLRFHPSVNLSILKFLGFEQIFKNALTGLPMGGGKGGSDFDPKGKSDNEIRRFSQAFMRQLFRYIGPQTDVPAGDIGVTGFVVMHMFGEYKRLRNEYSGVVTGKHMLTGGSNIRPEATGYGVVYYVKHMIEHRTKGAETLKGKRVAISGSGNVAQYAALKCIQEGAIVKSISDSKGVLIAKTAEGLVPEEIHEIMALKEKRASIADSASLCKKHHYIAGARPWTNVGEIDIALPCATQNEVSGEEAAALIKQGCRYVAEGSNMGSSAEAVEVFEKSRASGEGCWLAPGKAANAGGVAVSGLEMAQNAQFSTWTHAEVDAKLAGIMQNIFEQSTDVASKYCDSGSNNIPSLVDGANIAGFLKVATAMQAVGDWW
Sequence of UniProt Q9R7D7 (whole entry, looked up): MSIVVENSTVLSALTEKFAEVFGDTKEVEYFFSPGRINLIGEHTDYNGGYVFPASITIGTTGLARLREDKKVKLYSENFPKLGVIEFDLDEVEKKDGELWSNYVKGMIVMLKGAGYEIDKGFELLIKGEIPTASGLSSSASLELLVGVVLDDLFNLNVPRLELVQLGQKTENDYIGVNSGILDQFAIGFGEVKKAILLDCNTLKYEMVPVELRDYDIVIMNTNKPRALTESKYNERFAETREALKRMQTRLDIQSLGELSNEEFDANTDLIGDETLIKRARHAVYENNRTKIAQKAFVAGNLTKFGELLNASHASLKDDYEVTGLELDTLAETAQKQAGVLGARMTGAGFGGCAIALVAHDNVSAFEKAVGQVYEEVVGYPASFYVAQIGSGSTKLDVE

Substance	target or system	test	test system	setting	how to read	quantity	result
B1 (enzyme)	Nc1ncnc2c1ncn2[C@@H]1O[C@H](COP(=O)(O)O)[C@@H](O)[C@H]1O	steady-state kinetics		pH 6.8, 37 °C, with: Mg2+ 1 mM		Km	400 µM
enzyme K123A (Homo sapiens, UniProt Q08623)	O=c1[nH]cc([C@@H]2O[C@H](COP(=O)(O)O)[C@@H](O)[C@H]2O)c(=O)[nH]1	steady-state kinetics		pH 7, 25 °C		Km	1.8 µM
EKPIDSETKM	human MAGI1-2/6 PDZ construct (MBP fusion)	automated holdup	peptide, purified PDZ protein	concentration not given, unit not given	relative to: biotin control resin, higher = stronger binding	binding intensity	-0.0466
enzyme (Schizosaccharomyces pombe, UniProt P78804)	NC(=O)c1ccc[n+]([C@@H]2O[C@H](COP(=O)(O)OP(=O)(O)OC[C@H]3O[C@@H](n4cnc5c(N)ncnc54)[C@H](OP(=O)(O)O)[C@@H]3O)[C@@H](O)[C@H]2O)c1	steady-state kinetics		pH 7, 30 °C, apparent		Km	40 µM
B2 (enzyme)	O=[N+]([O-])c1ccc(OP(=O)(O)O)cc1	steady-state kinetics		37 °C, with: Ni2+ 0.25 mM		Km	13700 µM
ABCB1 (Homo sapiens, UniProt P08183)	C=C[C@@H]1C[C@]1(NC(=O)[C@@H]1C[C@@H]2CN1C(=O)[C@H](C(C)(C)C)NC(=O)O[C@@H]1C[C@H]1CCCCCc1nc3ccc(OC)cc3nc1O2)C(=O)NS(=O)(=O)C1CC1	steady-state kinetics		37 °C		Km	0.325 µM
B3 (enzyme H130A)	C[S+](CC[C@H](N)C(=O)O)C[C@H]1O[C@@H](n2cnc3c(N)ncnc32)[C@H](O)[C@@H]1O	steady-state kinetics		pH 7.9, 37 °C, apparent, with: 1-200 µM SAM		Km	1.4 µM
HNL C81L/E79H/G176S/H103V/K236M/N104A/T11G (Hevea brasiliensis)	CC(=O)Oc1ccc([N+](=O)[O-])cc1	steady-state kinetics		pH 7.2, 21 °C		Km	30 µM
enzyme (Spiroplasma melliferum, UniProt A0ABF7PLM3)	Nc1nc2c(ncn2[C@@H]2O[C@H](COP(=O)(O)OP(=O)(O)OP(=O)(O)O)[C@@H](O)[C@H]2O)c(=O)[nH]1	steady-state kinetics		pH 6.5, 30 °C, with: MgCl2 5 mM		Km	234 µM
B4 (FDH1)	O=CO	steady-state kinetics		pH 7.5, 30 °C		Km	3850 µM
gdh N192S/N97F (Bacillus subtilis)	NC(=O)c1ccc[n+]([C@@H]2O[C@H](COP(=O)(O)OP(=O)(O)OC[C@H]3O[C@@H](n4cnc5c(N)ncnc54)[C@H](O)[C@@H]3O)[C@@H](O)[C@H]2O)c1	steady-state kinetics		pH 7, 55 °C		Km	220 µM
GSGAGKESYV	human MAGI1-2/6 PDZ construct (MBP fusion)	automated holdup	peptide, purified PDZ protein	concentration not given, unit not given	relative to: biotin control resin, higher = stronger binding	binding intensity	0.0404
B5	O=C(O)C(=O)Cc1ccccc1	steady-state kinetics		pH 7.5, 25 °C, with: PMP 20 µM, ammonium acetate 10 mM		Km	620 µM
B6 (PYCR2 R119C)	NC(=O)C1=CN([C@@H]2O[C@H](COP(=O)(O)OP(=O)(O)OC[C@H]3O[C@@H](n4cnc5c(N)ncnc54)[C@H](O)[C@@H]3O)[C@@H](O)[C@H]2O)C=CC1	steady-state kinetics		pH 7.5, 37 °C, apparent, cofactor varied, with: DL-P5C 5000 µM		Km	34 µM
B7 (enzyme T248A)	O=c1c(-c2ccc(O)cc2)coc2cc(O)ccc12	steady-state kinetics		pH 7, 28 °C, not purified, with: MnCl2 10 mM		Km	54.1 µM
B8 (enzyme)	N[C@@H](CS)C(=O)O	steady-state kinetics		pH 8, 25 °C, with: O2		Km	11400 µM
enzyme (UniProt A0A097IUE6)	O=C(O)CC(=O)C(=O)O	steady-state kinetics		pH 7.5, 25 °C		Km	180 µM
B9 (enzyme)	NC(=O)C1=CN([C@@H]2O[C@H](COP(=O)(O)OP(=O)(O)OC[C@H]3O[C@@H](n4cnc5c(N)ncnc54)[C@H](OP(=O)(O)O)[C@@H]3O)[C@@H](O)[C@H]2O)C=CC1	steady-state kinetics		pH 7, 37 °C, cofactor varied		Km	5.7 µM
enzyme (UniProt A0A4R3LQ44)	O=C(O)[C@H](O)[C@@H](O)[C@H](O)[C@H](O)CO	steady-state kinetics		pH 8, 37 °C		Km	6500 µM
B10 (enzyme Y243A)	C[C@@H]1O[C@H](OP(=O)(O)OP(=O)(O)OC[C@H]2O[C@@H](n3cnc4c(=O)[nH]c(N)nc43)[C@H](O)[C@@H]2O)[C@@H](O)[C@H](O)[C@@H]1O	steady-state kinetics		pH 6.5, 30 °C		Km	240 µM
enzyme (Lactococcus lactis, UniProt Q9R7D7)	Nc1ncnc2c1ncn2[C@@H]1O[C@H](COP(=O)(O)OP(=O)(O)OP(=O)(O)O)[C@@H](O)[C@H]1O	steady-state kinetics		pH 8, 24 °C		Km	53 µM
